Published values from different studies.
A part holds a random share of what one study measured. Several values in a cell are separate wells, animals, samples, runs or records.
Chain of UniProt P24723 (whole entry, looked up): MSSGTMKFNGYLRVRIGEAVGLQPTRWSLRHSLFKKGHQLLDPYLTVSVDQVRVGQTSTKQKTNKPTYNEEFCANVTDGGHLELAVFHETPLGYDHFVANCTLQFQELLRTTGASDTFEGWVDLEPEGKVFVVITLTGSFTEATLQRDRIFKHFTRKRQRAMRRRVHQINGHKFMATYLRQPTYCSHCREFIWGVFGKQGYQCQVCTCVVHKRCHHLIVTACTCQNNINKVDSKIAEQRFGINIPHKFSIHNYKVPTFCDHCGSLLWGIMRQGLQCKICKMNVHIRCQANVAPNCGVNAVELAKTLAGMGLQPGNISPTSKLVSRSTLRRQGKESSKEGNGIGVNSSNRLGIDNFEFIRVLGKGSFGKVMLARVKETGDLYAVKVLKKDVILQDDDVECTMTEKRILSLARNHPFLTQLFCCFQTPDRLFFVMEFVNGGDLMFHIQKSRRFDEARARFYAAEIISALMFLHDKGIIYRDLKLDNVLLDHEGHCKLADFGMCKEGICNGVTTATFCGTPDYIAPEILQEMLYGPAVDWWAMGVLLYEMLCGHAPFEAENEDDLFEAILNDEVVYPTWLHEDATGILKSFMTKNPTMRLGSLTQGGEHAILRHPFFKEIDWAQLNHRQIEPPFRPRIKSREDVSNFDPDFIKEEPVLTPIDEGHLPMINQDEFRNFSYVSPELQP
Chain of UniProt Q8WTQ7 (whole entry, looked up): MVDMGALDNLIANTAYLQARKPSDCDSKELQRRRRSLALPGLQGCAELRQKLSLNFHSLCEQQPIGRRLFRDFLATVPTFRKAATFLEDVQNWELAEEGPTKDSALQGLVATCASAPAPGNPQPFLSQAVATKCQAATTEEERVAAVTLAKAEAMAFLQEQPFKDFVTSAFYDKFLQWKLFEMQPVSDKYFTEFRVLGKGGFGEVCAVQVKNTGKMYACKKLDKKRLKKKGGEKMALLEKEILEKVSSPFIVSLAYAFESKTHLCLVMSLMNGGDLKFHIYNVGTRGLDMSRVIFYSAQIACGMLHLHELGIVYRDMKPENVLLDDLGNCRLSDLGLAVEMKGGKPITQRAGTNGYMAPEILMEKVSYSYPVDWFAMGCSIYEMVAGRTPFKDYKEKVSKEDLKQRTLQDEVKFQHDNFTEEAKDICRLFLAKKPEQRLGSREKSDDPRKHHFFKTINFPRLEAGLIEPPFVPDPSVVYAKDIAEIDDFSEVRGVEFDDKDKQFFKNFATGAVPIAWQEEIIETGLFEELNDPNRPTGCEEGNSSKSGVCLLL
Chain of UniProt P46734 (whole entry, looked up): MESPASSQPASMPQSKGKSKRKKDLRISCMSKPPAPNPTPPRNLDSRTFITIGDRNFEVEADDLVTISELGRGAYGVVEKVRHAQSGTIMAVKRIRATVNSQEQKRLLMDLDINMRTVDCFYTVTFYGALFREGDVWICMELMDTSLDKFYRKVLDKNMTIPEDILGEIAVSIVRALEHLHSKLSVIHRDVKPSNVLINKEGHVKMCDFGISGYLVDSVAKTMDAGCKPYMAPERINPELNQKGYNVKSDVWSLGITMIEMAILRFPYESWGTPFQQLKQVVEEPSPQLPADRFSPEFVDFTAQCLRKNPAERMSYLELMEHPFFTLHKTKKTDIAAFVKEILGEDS

Series 1 — cell line: mouse MPNST tumor cells; method: high-content immunofluorescence imaging; measured: nuclear SOX9; concentration: 10 µM; time: 12 h; setting: mean of 2 replicates; reference: DMSO control; reading: higher = more nuclear SOX9; quantity: nuclear SOX9 intensity
Structure (SMILES) = Clc1ccc(COC(Cn2ccnc2)c2ccc(Cl)cc2Cl)c(Cl)c1 (centres unmarked); value = 159 % of DMSO and 105 % of DMSO
Structure (SMILES) = N#Cc1ccc(-c2csc(NN=C3CCCC3)n2)cc1; value = 117 % of DMSO
Structure (SMILES) = CC(=O)O[C@]1(C(C)=O)CC[C@H]2[C@@H]3C=C(Cl)C4=CC(=O)CC[C@]4(C)[C@H]3CC[C@@]21C; value = 96.2 % of DMSO
Structure (SMILES) = CC(=O)OCC(COC(C)=O)OC(C)=O; value = 95 % of DMSO

Series 2 — read-out: enzyme activity; concentration: 5 µM; reference: untreated control; quantity: remaining activity
SMILES: O=C(Nc1cnn(-c2csc(C(=O)NC3COC3)c2)c1)Nc1c(F)cccc1Cl
target = FLT1 (Homo sapiens, UniProt P17948); value = 82.3%
target = MAPKAPK5 (Homo sapiens, UniProt Q8IW41); value = 96.3%
target = MAP4K4 (Homo sapiens, UniProt O95819); value = 81.6%
target = CAMK2G (Homo sapiens, UniProt Q13555); value = 89.9%

Series 3 — method: competition with immobilised ligand; concentration: 1 µM; quantity: remaining binding
Compound: Cc1cc(NC(=O)c2cccc(S(F)(F)(F)(F)F)c2)cc(-n2ccn3nc(-c4cccnc4)cc23)c1
target = PRKCH (Homo sapiens, UniProt P24723); read-out = cell-free assay; value = 100%
target = PIM2 (Homo sapiens, UniProt Q9P1W9); read-out = cell-free assay; value = 100%
target = WNK2 (Homo sapiens, UniProt Q9Y3S1); read-out = cell-free assay; value = 100%
target = GRK4 (Homo sapiens, UniProt P32298); read-out = cell-free assay; value = 100%
target = ERBB2 (Homo sapiens, UniProt P04626); read-out = cell-free assay; value = 100%
target = NTRK1 (Homo sapiens, UniProt P04629); read-out = cell-free assay; value = 40.2%
target = RET (Homo sapiens, UniProt P07949); read-out = cell-free assay; value = 100%
target = SIK3 (Homo sapiens, UniProt Q9Y2K2); read-out = cell-free assay; value = 100%
target = MAP3K13 (Homo sapiens, UniProt O43283); read-out = cell-free assay; value = 100%
target = Tyrosine-protein kinase JAK2, JH1 (JAK2, Homo sapiens, UniProt O60674); read-out = cell-free assay; value = 85.3%
target = Tyrosine-protein kinase JAK1, JH1 (JAK1, Homo sapiens, UniProt P23458); read-out = cell-free assay; value = 100%
target = Tyrosine-protein kinase ABL1, phosphorylated (ABL1, Homo sapiens, UniProt P00519, E255K); read-out = binding; value = 66.7%
target = PRKD2 (Homo sapiens, UniProt Q9BZL6); read-out = cell-free assay; value = 100%
target = MAP3K2 (Homo sapiens, UniProt Q9Y2U5); read-out = cell-free assay; value = 52.7%
target = TLK1 (Homo sapiens, UniProt Q9UKI8); read-out = cell-free assay; value = 100%
target = FGFR3 (Homo sapiens, UniProt P22607, G697C); read-out = cell-free assay; value = 100%
target = TSSK3 (Homo sapiens, UniProt Q96PN8); read-out = cell-free assay; value = 100%
target = GRK7 (Homo sapiens, UniProt Q8WTQ7); read-out = cell-free assay; value = 100%
target = PIM3 (Homo sapiens, UniProt Q86V86); read-out = cell-free assay; value = 100%
target = IRAK1 (Homo sapiens, UniProt P51617); read-out = cell-free assay; value = 96%
target = Cyclin-dependent kinase 4, with cyclin D1 (CDK4, Homo sapiens, UniProt P11802); read-out = cell-free assay; value = 82.9%
target = MARK2 (Homo sapiens, UniProt Q7KZI7); read-out = cell-free assay; value = 100%
target = MAP2K3 (Homo sapiens, UniProt P46734); read-out = cell-free assay; value = 62.1%
target = EPHA6 (Homo sapiens, UniProt Q9UF33); read-out = cell-free assay; value = 100%
target = MAP2K5 (Homo sapiens, UniProt Q13163); read-out = cell-free assay; value = 35.9%

Series 4 — organism: Sarcocystis neurona; read-out: parasite growth; concentration: 10 µM; time: 96 h; quantity: inhibition
SMILES = N[C@@H](C(=O)N[C@@H]1C(=O)N2C(C(=O)O)=C(CSc3c[nH]nn3)CS[C@H]12)c1ccc(O)cc1; value = -11.1%
SMILES = O=C1CCC(N2C(=O)c3ccccc3C2=O)C(=O)N1 (centres unmarked); value = -15.9%
SMILES = Cn1c(=O)c2[nH]cnc2n(C)c1=O; value = -7%
SMILES = CCS(=O)(=O)CCn1c([N+](=O)[O-])cnc1C; value = -8.3%

Series 5 — species: mouse; matrix: microsomes or S9; concentration: 2 µM; time: 0.5 h; quantity: remaining compound
SMILES = N#Cc1cccn2cc(-c3cccc(Br)c3)nc12; value = 36.9%
SMILES = O=C(O)/C=C/c1ccc2c(c1)N(Cc1ccccc1)C(=O)CO2; value = 63.7%
SMILES = CS(=O)(=O)N1CCN(CCCOc2ccc3c(c2)CN(Cc2cccnc2)C3=O)CC1; value = 58%
SMILES = O=C(c1ccccc1)c1cc(Cl)ccc1Nc1cccc2c1N(c1ncccn1)CCC2; value = 0.902%
SMILES = O=c1ccccn1Cc1nc2cc(Cl)ccc2n1CCO; value = 88.6%

Series 6 — action: antagonist; quantity: IC50
Target: Beta-1 adrenergic receptor (ADRB1, Homo sapiens, UniProt P08588)
Chain of UniProt P08588 (whole entry, looked up): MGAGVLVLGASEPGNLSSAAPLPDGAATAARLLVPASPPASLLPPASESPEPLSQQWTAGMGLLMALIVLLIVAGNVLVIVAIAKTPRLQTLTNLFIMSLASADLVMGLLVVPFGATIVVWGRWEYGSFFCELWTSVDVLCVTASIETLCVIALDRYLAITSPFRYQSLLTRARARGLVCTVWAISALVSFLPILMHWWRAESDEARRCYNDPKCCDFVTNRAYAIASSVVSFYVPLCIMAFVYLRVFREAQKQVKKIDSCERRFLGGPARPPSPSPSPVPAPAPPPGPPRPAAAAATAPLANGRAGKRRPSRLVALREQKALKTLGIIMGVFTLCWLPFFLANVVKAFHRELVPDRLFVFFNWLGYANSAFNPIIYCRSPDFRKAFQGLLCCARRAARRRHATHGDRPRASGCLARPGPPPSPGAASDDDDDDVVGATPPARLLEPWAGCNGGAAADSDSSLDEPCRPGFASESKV
SMILES = COc1ccc(-c2ccc3ncc4c(c3c2)n(-c2ccc(N3CCNCC3)c(C(F)(F)F)c2)c(=O)n4C)cn1; value = ≥ 100 µM
SMILES = Cc1ccc(/C=C(/C#N)c2nc(-c3cc4c(ccc5ccccc54)oc3=O)cs2)s1; value = ≥ 100 µM
SMILES = O=C(Nc1cccc(C(F)(F)F)c1)N[C@H]1CO[C@H]2[C@@H]1OC[C@@H]2Nc1nccc(-c2ccc(-c3ccccc3)cc2)n1; value = ≥ 100 µM

Series 7 — read-out: enzyme activity; action: inhibitor; concentration: 77 µM; reference: untreated; quantity: remaining activity
Target: DNA polymerase theta, ATPase domain (POLQ, Homo sapiens, UniProt O75417)
Chain of UniProt O75417 (whole entry, unmodified, looked up): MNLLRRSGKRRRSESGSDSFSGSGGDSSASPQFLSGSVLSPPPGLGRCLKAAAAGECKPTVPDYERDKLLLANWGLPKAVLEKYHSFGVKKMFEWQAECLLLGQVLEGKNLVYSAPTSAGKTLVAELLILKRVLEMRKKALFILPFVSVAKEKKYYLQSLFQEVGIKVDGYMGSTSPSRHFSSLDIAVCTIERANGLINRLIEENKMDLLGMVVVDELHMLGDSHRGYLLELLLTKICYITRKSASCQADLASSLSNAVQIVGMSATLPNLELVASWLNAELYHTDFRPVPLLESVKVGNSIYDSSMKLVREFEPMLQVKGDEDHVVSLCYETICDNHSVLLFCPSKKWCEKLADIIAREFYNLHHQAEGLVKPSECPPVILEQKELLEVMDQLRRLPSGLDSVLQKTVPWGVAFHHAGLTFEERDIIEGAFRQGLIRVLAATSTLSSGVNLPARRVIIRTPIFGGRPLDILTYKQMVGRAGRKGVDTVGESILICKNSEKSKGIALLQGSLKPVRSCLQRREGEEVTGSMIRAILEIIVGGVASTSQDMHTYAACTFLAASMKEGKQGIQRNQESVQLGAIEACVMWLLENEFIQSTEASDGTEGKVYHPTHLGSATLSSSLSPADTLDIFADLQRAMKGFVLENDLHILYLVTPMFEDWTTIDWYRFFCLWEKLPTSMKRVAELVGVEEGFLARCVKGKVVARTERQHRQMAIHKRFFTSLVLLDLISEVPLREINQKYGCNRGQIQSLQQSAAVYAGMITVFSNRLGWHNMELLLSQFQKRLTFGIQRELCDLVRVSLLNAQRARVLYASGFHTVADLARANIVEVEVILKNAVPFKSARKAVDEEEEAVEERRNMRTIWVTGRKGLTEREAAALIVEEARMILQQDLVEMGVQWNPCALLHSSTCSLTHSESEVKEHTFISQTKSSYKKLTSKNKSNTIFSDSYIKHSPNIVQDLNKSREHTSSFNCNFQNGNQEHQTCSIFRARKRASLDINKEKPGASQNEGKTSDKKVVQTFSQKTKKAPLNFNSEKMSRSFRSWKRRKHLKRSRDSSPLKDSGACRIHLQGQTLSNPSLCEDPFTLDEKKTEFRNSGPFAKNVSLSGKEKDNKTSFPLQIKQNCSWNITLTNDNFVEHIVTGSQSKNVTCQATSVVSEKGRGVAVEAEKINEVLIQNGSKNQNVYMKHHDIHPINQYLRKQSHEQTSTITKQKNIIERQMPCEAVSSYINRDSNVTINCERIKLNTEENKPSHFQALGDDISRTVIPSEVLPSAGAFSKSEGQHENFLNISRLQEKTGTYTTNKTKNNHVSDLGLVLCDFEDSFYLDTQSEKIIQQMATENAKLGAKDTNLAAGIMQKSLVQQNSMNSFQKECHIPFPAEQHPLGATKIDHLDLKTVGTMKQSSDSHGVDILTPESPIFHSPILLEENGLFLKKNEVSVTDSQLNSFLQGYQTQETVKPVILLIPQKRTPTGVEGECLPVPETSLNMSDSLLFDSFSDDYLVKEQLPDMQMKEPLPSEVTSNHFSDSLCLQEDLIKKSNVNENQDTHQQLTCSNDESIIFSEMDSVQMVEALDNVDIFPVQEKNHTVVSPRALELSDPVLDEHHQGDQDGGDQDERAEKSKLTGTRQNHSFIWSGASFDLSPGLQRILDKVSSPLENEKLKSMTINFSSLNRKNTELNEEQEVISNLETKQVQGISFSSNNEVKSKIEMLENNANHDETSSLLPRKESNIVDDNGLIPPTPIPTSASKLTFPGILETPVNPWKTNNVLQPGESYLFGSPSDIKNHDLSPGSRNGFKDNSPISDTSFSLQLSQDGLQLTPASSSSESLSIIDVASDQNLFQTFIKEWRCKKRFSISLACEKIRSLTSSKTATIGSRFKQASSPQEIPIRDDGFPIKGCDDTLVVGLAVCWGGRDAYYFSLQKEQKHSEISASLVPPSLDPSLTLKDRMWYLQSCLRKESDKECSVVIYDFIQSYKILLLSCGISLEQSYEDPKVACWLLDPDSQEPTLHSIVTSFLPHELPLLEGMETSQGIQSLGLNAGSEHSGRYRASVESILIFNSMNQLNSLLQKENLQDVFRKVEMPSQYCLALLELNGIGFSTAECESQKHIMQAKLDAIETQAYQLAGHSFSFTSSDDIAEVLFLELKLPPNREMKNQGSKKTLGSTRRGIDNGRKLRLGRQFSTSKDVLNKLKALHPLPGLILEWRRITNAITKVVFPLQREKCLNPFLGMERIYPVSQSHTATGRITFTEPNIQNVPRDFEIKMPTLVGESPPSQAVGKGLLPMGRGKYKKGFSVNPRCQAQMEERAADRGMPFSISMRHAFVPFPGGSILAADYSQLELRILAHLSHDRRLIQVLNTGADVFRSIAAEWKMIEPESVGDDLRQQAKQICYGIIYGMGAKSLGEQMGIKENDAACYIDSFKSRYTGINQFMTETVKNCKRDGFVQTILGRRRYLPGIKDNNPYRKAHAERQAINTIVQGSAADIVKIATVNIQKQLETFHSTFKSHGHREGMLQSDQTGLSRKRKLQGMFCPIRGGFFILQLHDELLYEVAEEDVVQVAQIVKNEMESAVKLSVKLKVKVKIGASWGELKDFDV
SMILES = N#Cc1c(C2CCNCC2)cc(-c2c(O)cccc2OCC2CC2)nc1N; value = 116%
SMILES = COc1c(C)c2c(c(O)c1C/C=C(\C)CCC(=O)OCCN1CCOCC1)C(=O)OC2; value = 81%
SMILES = COCCCN1CCC(NC(=O)c2cc(Cl)c(N)c3c2OCC3)CC1; value = 101% and 91.1%
SMILES = Nc1nc(SCc2ccc([N+](=O)[O-])cc2)c2ncn([C@@H]3O[C@H](CO)[C@@H](O)[C@H]3O)c2n1; value = 97.3%
SMILES = CCN(CC)CCOC(=O)C(c1ccccc1)C1CCCCC1 (centres unmarked); value = 101%

Some of these lines once more (series 3):
target = Tyrosine-protein kinase JAK1, JH1 (JAK1, Homo sapiens, UniProt P23458); read-out = cell-free assay; value = 100%
target = Tyrosine-protein kinase ABL1, phosphorylated (ABL1, Homo sapiens, UniProt P00519, E255K); read-out = binding; value = 66.7%
target = PRKD2 (Homo sapiens, UniProt Q9BZL6); read-out = cell-free assay; value = 100%
target = MAP3K2 (Homo sapiens, UniProt Q9Y2U5); read-out = cell-free assay; value = 52.7%
target = TLK1 (Homo sapiens, UniProt Q9UKI8); read-out = cell-free assay; value = 100%
target = FGFR3 (Homo sapiens, UniProt P22607, G697C); read-out = cell-free assay; value = 100%
target = TSSK3 (Homo sapiens, UniProt Q96PN8); read-out = cell-free assay; value = 100%
target = GRK7 (Homo sapiens, UniProt Q8WTQ7); read-out = cell-free assay; value = 100%
